Measured values collected from several papers.
Protocols differ between the studies behind these lines. ± gives the spread as reported.
Chain of UniProt P27448 (whole entry, looked up): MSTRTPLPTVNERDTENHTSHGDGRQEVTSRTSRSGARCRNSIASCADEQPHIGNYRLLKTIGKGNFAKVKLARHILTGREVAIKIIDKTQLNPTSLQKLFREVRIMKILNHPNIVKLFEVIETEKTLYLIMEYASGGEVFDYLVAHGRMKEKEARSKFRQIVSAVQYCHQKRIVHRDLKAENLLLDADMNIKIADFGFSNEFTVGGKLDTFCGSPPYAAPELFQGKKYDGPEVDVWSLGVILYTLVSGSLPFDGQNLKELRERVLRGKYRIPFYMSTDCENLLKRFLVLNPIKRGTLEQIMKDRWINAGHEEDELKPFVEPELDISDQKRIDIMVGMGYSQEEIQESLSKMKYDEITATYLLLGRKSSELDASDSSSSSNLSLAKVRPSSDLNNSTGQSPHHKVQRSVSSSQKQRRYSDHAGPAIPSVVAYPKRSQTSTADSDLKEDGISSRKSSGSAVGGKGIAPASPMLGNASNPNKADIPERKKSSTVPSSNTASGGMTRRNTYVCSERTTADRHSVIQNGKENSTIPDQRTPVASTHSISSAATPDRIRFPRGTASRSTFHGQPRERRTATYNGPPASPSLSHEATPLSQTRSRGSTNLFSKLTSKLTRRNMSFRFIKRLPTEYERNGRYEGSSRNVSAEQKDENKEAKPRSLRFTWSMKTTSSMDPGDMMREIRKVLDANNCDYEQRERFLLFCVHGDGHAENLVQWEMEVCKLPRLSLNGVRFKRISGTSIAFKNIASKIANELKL
Chain of UniProt Q99685 (whole entry, looked up): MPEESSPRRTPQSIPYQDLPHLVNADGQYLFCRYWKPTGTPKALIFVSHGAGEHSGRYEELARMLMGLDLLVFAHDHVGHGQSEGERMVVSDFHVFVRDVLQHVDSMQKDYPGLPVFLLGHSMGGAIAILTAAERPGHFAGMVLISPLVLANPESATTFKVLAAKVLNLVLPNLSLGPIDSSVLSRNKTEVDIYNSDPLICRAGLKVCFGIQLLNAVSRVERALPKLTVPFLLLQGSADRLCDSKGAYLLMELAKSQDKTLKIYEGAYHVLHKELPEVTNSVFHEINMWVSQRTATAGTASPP
Chain of UniProt P08922 (whole entry, looked up): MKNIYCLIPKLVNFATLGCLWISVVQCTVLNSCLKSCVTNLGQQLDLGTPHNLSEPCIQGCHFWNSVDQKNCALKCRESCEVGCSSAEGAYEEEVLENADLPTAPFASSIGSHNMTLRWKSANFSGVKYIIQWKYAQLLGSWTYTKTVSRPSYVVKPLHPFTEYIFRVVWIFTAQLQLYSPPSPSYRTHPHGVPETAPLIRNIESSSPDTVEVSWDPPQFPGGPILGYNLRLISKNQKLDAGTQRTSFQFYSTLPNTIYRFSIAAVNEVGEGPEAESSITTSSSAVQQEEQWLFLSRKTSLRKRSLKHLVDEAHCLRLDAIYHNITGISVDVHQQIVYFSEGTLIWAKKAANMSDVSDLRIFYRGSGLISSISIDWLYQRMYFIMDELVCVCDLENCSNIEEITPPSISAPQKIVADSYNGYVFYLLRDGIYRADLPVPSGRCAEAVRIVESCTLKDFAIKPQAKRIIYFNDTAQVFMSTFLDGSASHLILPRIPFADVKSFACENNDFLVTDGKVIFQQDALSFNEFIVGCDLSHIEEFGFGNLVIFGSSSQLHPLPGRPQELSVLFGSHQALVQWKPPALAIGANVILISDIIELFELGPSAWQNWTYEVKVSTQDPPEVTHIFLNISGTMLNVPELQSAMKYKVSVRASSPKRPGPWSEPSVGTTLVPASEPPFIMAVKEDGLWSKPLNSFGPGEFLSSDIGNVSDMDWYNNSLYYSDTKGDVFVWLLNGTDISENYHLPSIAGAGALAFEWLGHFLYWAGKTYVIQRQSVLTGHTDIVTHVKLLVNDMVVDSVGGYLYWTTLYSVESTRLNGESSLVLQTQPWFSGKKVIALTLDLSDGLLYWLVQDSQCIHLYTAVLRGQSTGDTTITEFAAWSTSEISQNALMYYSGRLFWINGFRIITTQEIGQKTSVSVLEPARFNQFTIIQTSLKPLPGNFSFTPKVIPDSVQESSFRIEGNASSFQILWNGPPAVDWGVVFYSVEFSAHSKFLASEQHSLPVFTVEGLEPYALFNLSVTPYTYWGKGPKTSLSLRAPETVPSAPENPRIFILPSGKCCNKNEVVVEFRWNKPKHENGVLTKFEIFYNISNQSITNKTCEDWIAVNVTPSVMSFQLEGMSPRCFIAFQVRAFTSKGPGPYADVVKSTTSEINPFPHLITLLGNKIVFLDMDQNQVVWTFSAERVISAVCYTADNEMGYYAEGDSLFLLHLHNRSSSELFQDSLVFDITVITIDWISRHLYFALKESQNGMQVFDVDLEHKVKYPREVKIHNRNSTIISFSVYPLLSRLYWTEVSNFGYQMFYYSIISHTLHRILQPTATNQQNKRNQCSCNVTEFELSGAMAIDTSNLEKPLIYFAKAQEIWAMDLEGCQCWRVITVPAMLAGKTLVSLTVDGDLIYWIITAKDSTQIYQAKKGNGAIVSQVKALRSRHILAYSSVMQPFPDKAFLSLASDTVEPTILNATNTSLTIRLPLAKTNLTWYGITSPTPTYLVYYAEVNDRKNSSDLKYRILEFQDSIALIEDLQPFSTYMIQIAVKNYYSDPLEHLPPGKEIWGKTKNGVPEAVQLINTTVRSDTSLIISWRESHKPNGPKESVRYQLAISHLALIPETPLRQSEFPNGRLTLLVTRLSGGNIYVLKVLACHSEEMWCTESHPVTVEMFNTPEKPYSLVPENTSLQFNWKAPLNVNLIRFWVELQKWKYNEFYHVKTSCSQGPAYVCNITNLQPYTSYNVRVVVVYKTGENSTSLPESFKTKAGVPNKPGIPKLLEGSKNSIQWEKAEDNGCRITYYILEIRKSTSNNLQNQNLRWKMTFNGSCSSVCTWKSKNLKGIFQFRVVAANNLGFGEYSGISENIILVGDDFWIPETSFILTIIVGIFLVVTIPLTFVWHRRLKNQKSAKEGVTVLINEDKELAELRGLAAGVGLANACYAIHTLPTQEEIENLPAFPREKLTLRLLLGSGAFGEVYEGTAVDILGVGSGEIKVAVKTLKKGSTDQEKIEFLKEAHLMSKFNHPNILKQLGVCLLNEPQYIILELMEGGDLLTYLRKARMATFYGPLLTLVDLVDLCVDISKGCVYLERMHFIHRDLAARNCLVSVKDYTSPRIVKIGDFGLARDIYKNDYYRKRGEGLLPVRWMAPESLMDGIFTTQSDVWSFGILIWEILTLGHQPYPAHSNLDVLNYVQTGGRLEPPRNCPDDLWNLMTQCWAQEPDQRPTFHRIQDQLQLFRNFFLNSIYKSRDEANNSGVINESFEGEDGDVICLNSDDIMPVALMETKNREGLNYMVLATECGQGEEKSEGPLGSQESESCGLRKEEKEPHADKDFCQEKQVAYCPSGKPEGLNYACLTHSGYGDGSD
Chain of UniProt B2RXH2 (whole entry, looked up): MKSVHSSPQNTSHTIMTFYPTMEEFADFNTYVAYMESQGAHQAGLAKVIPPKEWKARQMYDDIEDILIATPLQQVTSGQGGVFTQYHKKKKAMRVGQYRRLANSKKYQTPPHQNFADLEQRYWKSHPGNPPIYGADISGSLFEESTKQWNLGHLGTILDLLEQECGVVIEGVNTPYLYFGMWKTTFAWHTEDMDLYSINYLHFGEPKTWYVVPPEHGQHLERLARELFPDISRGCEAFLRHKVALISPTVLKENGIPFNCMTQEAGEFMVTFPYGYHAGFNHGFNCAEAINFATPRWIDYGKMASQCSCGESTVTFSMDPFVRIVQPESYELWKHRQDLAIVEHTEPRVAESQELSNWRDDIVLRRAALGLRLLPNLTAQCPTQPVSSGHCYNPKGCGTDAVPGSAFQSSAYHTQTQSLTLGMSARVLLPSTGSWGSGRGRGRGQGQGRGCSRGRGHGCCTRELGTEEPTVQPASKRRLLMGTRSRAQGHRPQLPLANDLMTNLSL
Chain of UniProt P97612 (whole entry, looked up): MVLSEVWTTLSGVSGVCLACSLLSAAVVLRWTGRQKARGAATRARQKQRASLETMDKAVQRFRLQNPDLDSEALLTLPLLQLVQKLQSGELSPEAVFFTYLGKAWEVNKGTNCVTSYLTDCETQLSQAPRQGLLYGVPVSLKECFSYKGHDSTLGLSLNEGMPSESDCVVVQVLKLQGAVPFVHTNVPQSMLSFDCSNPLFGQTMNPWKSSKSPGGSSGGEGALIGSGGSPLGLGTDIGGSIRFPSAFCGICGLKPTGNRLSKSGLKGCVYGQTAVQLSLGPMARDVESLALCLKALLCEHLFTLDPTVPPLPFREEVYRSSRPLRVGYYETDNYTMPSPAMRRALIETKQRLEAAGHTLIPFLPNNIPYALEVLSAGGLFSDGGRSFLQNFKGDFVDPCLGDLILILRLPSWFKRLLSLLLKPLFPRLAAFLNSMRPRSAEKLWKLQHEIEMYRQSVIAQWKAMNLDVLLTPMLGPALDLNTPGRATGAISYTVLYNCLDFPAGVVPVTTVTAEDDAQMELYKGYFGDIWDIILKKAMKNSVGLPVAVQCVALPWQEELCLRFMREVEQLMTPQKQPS
Chain of UniProt P08684 (whole entry, looked up): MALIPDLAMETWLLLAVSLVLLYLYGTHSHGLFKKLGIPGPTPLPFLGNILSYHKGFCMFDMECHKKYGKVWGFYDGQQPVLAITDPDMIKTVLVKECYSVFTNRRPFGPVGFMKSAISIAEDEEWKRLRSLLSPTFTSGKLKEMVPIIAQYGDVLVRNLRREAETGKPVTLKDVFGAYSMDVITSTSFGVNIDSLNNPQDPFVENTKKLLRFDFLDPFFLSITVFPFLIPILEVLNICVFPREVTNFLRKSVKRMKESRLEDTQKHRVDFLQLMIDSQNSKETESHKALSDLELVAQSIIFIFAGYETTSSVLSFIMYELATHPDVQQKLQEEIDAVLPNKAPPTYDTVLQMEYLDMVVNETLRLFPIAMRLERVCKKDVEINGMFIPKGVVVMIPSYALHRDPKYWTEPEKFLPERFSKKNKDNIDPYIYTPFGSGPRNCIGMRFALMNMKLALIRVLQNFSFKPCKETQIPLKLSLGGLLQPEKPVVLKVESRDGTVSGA
Chain of UniProt P00383 (whole entry, looked up): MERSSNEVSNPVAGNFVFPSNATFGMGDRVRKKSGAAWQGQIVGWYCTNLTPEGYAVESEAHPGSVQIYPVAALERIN

SMILES = CC(C)C[C@H](NC(=O)OCc1cccc(Cl)c1)C(=O)N[C@H](C=O)C[C@H]1CCNC1=O; tested on = Genome polyprotein, 3C protease (rhinovirus B14, UniProt P03303); assay = 3C protease activity, inhibitor, FRET; endpoint = IC50; result = 200 ± 30 nM
SMILES = COc1cc(CNC(=O)C[C@H](C)CCC=C(C)C)ccc1OCc1cn(-c2ccc(Br)cc2)nn1; tested on = SR leukaemia cells; assay = SRB; setting = 10 µM, 48 h; endpoint = growth percent; result = 63.8%
SMILES = C[C@](C(=O)NC1CCC(F)(F)CC1)(c1cncnc1)N(C(=O)[C@H](F)Cl)c1ccc(OC(F)(F)F)cc1; tested on = Cytochrome P450 3A4 (CYP3A4, Homo sapiens, UniProt P08684); assay = enzyme activity, inhibitor; setting = 10 (unit not given); endpoint = IC50; result = 15600 nM
SMILES = CN(Cc1nc2ccccc2s1)C(=O)c1cccc(S(=O)(=O)N2CCc3ccccc3C2)c1; tested on = CACNA1C (Homo sapiens, UniProt Q13936); assay = calcium signal, fluorescence; endpoint = IC50; result = 3850 nM
SMILES = C[C@H](OP(=O)(O)O)[C@H]1NC(=O)[C@@H](CCCNC(=N)N)NC(=O)[C@@H](CCCNC(=N)N)NC(=O)[C@H](CCCNC(=N)N)NC(=O)[C@H](Cc2ccccc2)NC(=O)[C@H](Cc2ccc3ccccc3c2)NC(=O)[C@@H]2CCCCN2C1=O; tested on = PIN1 (Homo sapiens, UniProt Q13526); assay = fluorescence anisotropy competition; setting = added: FITC-labelled probe; endpoint = IC50; result = 1770 ± 280 nM
SMILES = CN(C(=O)c1ccn2ncc(-c3ccc(C(N)=O)cc3)c2c1)c1ccc(C#N)cn1; tested on = RET (Homo sapiens, UniProt P07949); assay = enzyme activity, inhibitor; endpoint = IC50; result = > 10000 nM
SMILES = CC(C)C[C@@H](CN[C@@H](Cc1ccc(Cl)cc1)C(N)=O)NC(=O)[C@H](Cc1c[nH]cn1)NC(=O)CNC(=O)[C@@H](NC(=O)[C@H](C)NC(=O)[C@H](Cc1c[nH]c2ccccc12)NC(=O)[C@H](CCC(N)=O)NC(=O)[C@H](N)Cc1ccccc1)C(C)C; tested on = GRPR (Homo sapiens, UniProt P30550); assay = binding, radioligand displacement; system = Balb 3T3 or HuTu-80; endpoint = IC50; result = 0.2 to 1.4 nM
SMILES = O=C(O)C(=O)N[C@H](CS)C(=O)O; tested on = KDM4E (Homo sapiens, UniProt B2RXH2); assay = enzyme activity, inhibitor; endpoint = IC50; result = 73000 nM
SMILES = O=C(OC(C(F)(F)F)C(F)(F)F)N1CCC(CCn2ncc3ccccc32)CC1; tested on = MGLL (Homo sapiens, UniProt Q99685); assay = enzyme activity, inhibitor; endpoint = IC50; result = 330 nM
SMILES = COc1ccccc1-c1ccc(-c2cn(C(=O)N3CCCCC3Cc3ccccc3)nn2)cc1 (stereo not shown); tested on = Diacylglycerol lipase-alpha (Mus musculus, UniProt Q6WQJ1); assay = enzyme activity, inhibitor; endpoint = IC50; result = 140 nM
SMILES = O=C(O)c1ccc2nc(-c3ccc(OCCOc4ccc(-c5nc6ccc(C(=O)O)cc6[nH]5)cc4)cc3)[nH]c2c1; tested on = Dihydrofolate reductase type 2 (Escherichia coli, UniProt P00383); assay = enzyme activity, inhibitor; setting = pH 7; endpoint = IC50; result = 160000 ± 50000 nM
SMILES = CN1CCc2cc(Nc3ncc(C(F)(F)F)c(NCc4cc[nH]n4)n3)ccc2C1; tested on = MARK3 (Homo sapiens, UniProt P27448); assay = enzyme activity, inhibitor, FRET; endpoint = IC50; result = 1.8 nM
SMILES = Cc1cc(NC2CCN(C)CC2)ccc1-c1cc2c(N3CCC[C@H](C(=O)NCc4ccc(OC(F)(F)F)cc4)C3)ncnc2[nH]1; tested on = ROS1 (Homo sapiens, UniProt P08922); assay = enzyme activity, inhibitor, mobility shift; endpoint = IC50; result = 7.88 nM
SMILES = COc1cc(CNC(=O)C[C@H](C)CCC=C(C)C)ccc1O; tested on = SF-295 CNS cancer cells; assay = SRB; setting = 10 µM, 48 h; endpoint = growth percent; result = 103%
SMILES = CN(Cc1ccccc1NC(=O)c1cc2ccccc2[nH]c1=O)C1CCCCC1; tested on = DNA topoisomerase 4 subunit B, with ParC subunit (parE, Escherichia coli K-12, UniProt P20083); assay = DNA relaxation, inhibitor; endpoint = IC50; result = > 30000 nM
SMILES = O=C(Nc1ccc(OC(F)(F)F)cc1)N1CCC(Cc2cccc(Oc3ccc(C(F)(F)F)cn3)c2)CC1; tested on = Faah (Rattus norvegicus, UniProt P97612); assay = enzyme activity, inhibitor, fluorescence; system = rat brain microsomes; setting = 5 min preincubation; endpoint = IC50; result = > 10000 nM

For quick reference, copied from above:
SMILES = CN(C(=O)c1ccn2ncc(-c3ccc(C(N)=O)cc3)c2c1)c1ccc(C#N)cn1; tested on = RET (Homo sapiens, UniProt P07949); assay = enzyme activity, inhibitor; endpoint = IC50; result = > 10000 nM
SMILES = CC(C)C[C@@H](CN[C@@H](Cc1ccc(Cl)cc1)C(N)=O)NC(=O)[C@H](Cc1c[nH]cn1)NC(=O)CNC(=O)[C@@H](NC(=O)[C@H](C)NC(=O)[C@H](Cc1c[nH]c2ccccc12)NC(=O)[C@H](CCC(N)=O)NC(=O)[C@H](N)Cc1ccccc1)C(C)C; tested on = GRPR (Homo sapiens, UniProt P30550); assay = binding, radioligand displacement; system = Balb 3T3 or HuTu-80; endpoint = IC50; result = 0.2 to 1.4 nM
SMILES = O=C(O)C(=O)N[C@H](CS)C(=O)O; tested on = KDM4E (Homo sapiens, UniProt B2RXH2); assay = enzyme activity, inhibitor; endpoint = IC50; result = 73000 nM
